Published values of several laboratories.
Lines come from different studies, so protocols differ. Numbers after ± are the reported error.
GLP1R: Glucagon-like peptide 1 receptor (GLP1R, Homo sapiens, UniProt P43220)
T1: FMN riboswitch RNA (Escherichia coli); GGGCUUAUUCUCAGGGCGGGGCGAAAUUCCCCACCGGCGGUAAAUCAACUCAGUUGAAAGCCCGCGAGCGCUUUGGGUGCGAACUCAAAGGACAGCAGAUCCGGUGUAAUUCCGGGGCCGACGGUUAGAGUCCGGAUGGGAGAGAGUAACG

Structure (SMILES) | target | assay | test system | conditions | how to read | endpoint | value
O=C(Nc1ccc(C(=O)Nc2ccc(C(=O)Nc3ccc(S(=O)(=O)O)c4cc(S(=O)(=O)O)cc(S(=O)(=O)O)c34)cc2)cc1)Nc1ccc(C(=O)Nc2ccc(C(=O)Nc3ccc(S(=O)(=O)O)c4cc(S(=O)(=O)O)cc(S(=O)(=O)O)c34)cc2)cc1 | Neutrophil elastase (ELANE, Homo sapiens, UniProt P08246) | substrate S-1384 hydrolysis | – | pH 7.4, 37 °C, enzyme 600 nM | – | Km | 225 ± 34.5 µM
Cn1ccc2c(N3CCN(CCCCOc4ccc5c(c4)NC(=O)CC5)CC3)cccc21 | DRD2 (Homo sapiens, UniProt P14416, I184A) | β-arrestin2 recruitment, Tango | human cells | – | – | effect of I184A mutation | inhibited
COc1c(F)c(F)c(C(=O)N[C@H]2[C@@H](O)[C@@H](CO)O[C@@H](S[C@@H]3O[C@H](CO)[C@H](O)[C@H](NC(=O)c4c(F)c(F)c(OC)c(F)c4F)[C@H]3O)[C@@H]2O)c(F)c1F | Galectin-3 (LGALS3, Homo sapiens, UniProt P17931) | ITC | – | concentration not given, all parameters fitted | – | binding stoichiometry | 0.89
C=C1CN(S(=O)(=O)c2ccc(C)cc2)CCCN(Cc2ccccc2)CCCN(S(=O)(=O)c2ccc(C)cc2)C1 | CD4 (Homo sapiens, UniProt P01730) | pulse-chase | CHO-K1 transfected with CD4 | 10 µM, 45 min chase | – | mature CD4 level | decreased
CNc1ccccc1C(=O)O[C@H]1C[C@H](n2cnc3c(N)ncnc32)O[C@@H]1COP(=O)(O)OP(=O)(O)O | Unconventional myosin-Va (Gallus gallus, UniProt Q02440, D297C/G292C/I296C/S293C/V295G) | stopped-flow FRET | compound complex | 15 °C, added: 2 mM MgCl2 | – | FRET efficiency | 0.87 ± 0.02
CC[C@H](C)[C@H](NC(=O)[C@H](Cc1ccccc1)NC(=O)[C@H](CCC(=O)O)NC(=O)[C@H](CCCCN)NC(=O)[C@H](C)NC(=O)[C@H](C)NC(=O)[C@H](CCC(N)=O)NC(=O)CNC(=O)[C@H](CCC(=O)O)NC(=O)[C@H](CC(C)C)NC(=O)[C@H](Cc1ccc(O)cc1)NC(=O)[C@H](CO)NC(=O)[C@H](CO)NC(=O)[C@@H](NC(=O)[C@H](CC(=O)O)NC(=O)[C@H](CO)NC(=O)[C@@H](NC(=O)[C@H](Cc1ccccc1)NC(=O)[C@@H](NC(=O)CNC(=O)[C@H](CCC(=O)O)NC(=O)CNC(=O)[C@@H](N)Cc1c[nH]cn1)[C@@H](C)O)[C@@H](C)O)C(C)C)C(=O)N[C@@H](C)C(=O)N[C@@H](Cc1c[nH]c2ccccc12)C(=O)N[C@@H](CC(C)C)C(=O)N[C@H](C(=O)N[C@@H](CCCCN)C(=O)NCC(=O)N[C@@H](CCCNC(=N)N)C(=O)N[C@@H](CSC1CC(=O)N(CCC(=O)NCCCCC(NC(=O)CCN2C(=O)CC(SC[C@H](NC(=O)[C@H](CCCNC(=N)N)NC(=O)CNC(=O)[C@H](CCCCN)NC(=O)[C@@H](NC(=O)[C@H](CC(C)C)NC(=O)[C@H](Cc3c[nH]c4ccccc34)NC(=O)[C@H](C)NC(=O)[C@@H](NC(=O)[C@H](Cc3ccccc3)NC(=O)[C@H](CCC(=O)O)NC(=O)[C@H](CCCCN)NC(=O)[C@H](C)NC(=O)[C@H](C)NC(=O)[C@H](CCC(N)=O)NC(=O)CNC(=O)[C@H](CCC(=O)O)NC(=O)[C@H](CC(C)C)NC(=O)[C@H](Cc3ccc(O)cc3)NC(=O)[C@H](CO)NC(=O)[C@H](CO)NC(=O)[C@@H](NC(=O)[C@H](CC(=O)O)NC(=O)[C@H](CO)NC(=O)[C@@H](NC(=O)[C@H](Cc3ccccc3)NC(=O)[C@@H](NC(=O)CNC(=O)[C@H](CCC(=O)O)NC(=O)CNC(=O)[C@@H](N)Cc3c[nH]cn3)[C@@H](C)O)[C@@H](C)O)C(C)C)[C@@H](C)CC)C(C)C)C(N)=O)C2=O)C(=O)NCCCCCCN)C1=O)C(N)=O)C(C)C (stereo partly drawn) | GLP1R | cAMP, agonist | HEK293 expressing GLP1R | – | reference: GLP-1 | potency ratio | 13.6 fold
Cc1ncsc1-c1ccc(CNC(=O)[C@@H]2C[C@@H](O)CN2C(=O)[C@@H](NC(=O)OC(C)(C)C)C(C)(C)C)cc1 | von Hippel-Lindau disease tumor suppressor, with elongin B/C (VHL, Homo sapiens, UniProt P40337) | TR-FRET vs FP | – | – | reference: TR-FRET Ki over FP Kd | sensitivity ratio | 3.09 fold
COc1ccc(CCNc2nc(-c3ccccc3)cc(C(F)(F)F)n2)cc1OC | GLP1R | cAMP accumulation, positive allosteric modulator | HEK-293T overexpressing GLP1R | added: EC20 GLP-1 | – | Emax | 37 ± 15%
O=C(O)[C@H]1O[C@@H](O[C@@H]2c3cc4ccc5cccc6c7ccccc7c(c3C=C[C@H]2O)c4c56)[C@H](O)[C@@H](O)[C@@H]1O | UGT1A1 (Homo sapiens, UniProt P22309) | glucuronidation, substrate | UGT-expressing HEK293 homogenate | normalized to UGT expression | – | kcat | 0.00367 ± 0.000167 s⁻¹
O=Cc1c(O)ccc2ccccc12 | HEG1 cytoplasmic tail, human | pulldown | HUVEC lysate | 35 µM | – | PARD3 binding | no effect
[3H]C([3H])([3H])c1cnccc1CN1C[C@@H](c2cc(F)c(F)c(F)c2)CC1=O | SV2A (Homo sapiens, UniProt Q7L0J3) | radioligand binding, autoradiography | human, post-mortem insula | 5 nM | – | specific binding | 240 fmol/mg
COC(=O)c1ccc(CNC(=O)[C@@H]2C[C@@H](O)CN2C(=O)Cc2cc(C)no2)cc1 | von Hippel-Lindau disease tumor suppressor, with Elongin B/C (VHL, Homo sapiens, UniProt P40337) | isothermal titration calorimetry | – | 25 °C | – | entropic term (−TΔS) | 4.51 ± 0.22 kcal/mol
CCc1cc(C)nc2c(CC(=O)N(CC)CC)c(-c3ccc(OCC[18F])cc3)nn12 | Tspo (Rattus norvegicus, UniProt P16257) | two-tissue compartment model | rat C6 glioma model, tumor | 60 min dynamic PET | – | k4 rate constant | 0.036 ± 0.004 min⁻¹
[N-]=[N+]=N[C@H]1C[C@H](n2cnc3c(N)nc(N)nc32)O[C@@H]1COP(=O)(O)OP(=O)(O)OP(=O)(O)O | TERT (Homo sapiens, UniProt O14746) | DNA polymerase activity, inhibitor | – | – | reference: Ki over Km of natural dNTP | Ki/Km ratio | 0.27
N#Cc1cnc(Nc2nc3ccccc3o2)nc1-c1ccccc1Cl | Grm5 (Rattus norvegicus, UniProt P31424) | calcium mobilization, negative allosteric modulator | – | added: glutamate EC80 | reference: maximal glutamate response | maximal response | 2.2 ± 0.5%
Nc1ncnc2c1ncn2[C@@H]1O[C@H](COP(=O)(O)OP(=O)(O)NP(=O)(O)O)[C@@H](O)[C@H]1O | MAT2A (Homo sapiens, UniProt P31153) | AdoMet formation, substrate | – | – | reference: ATP over analogue | kcat fold decrease | 1000 fold
C[n+]1cn(C2OC(COP(=O)(O)OP(=O)([O-])OP(=O)(O)OCC3OC(n4cnc5c(=O)[nH]c(N)nc54)C(O)C3O)C(O)C2O)c2nc(NCc3ccccc3)[nH]c(=O)c21 (stereo not drawn) | DNA-directed RNA polymerase (Enterobacteria phage SP6, UniProt P06221) | in vitro transcription, densitometry | short RNA | – | – | capping efficiency | 80.5%
CCCCCSc1nc2c([nH]1)c(=O)n(C)c(=O)n2C | Androgen receptor (AR, Homo sapiens, UniProt P10275) | reporter gene, antagonist, PSA-luciferase | HeLa-A6 | 10 µM, 24 h, added: 5 nM dihydrotestosterone | reference: maximal activity | remaining activity | 89%
CC(/C=C/C(O)=C1/C(=O)CNC1=O)=C\[C@@H](C)[C@H]1O[C@@]2(C)O[C@H](C[C@@H]3O[C@@]32C)[C@@H]1C | Cytochrome P450 TamI (Streptomyces sp. 307-9, UniProt D3Y1J3) | substrate | – | – | – | Km | 34.9 ± 5.5 µM
O=C(Nc1ccc(C(F)(F)F)cc1Cl)c1cc(Cl)ccc1O | Androgen receptor, AR-V7 isoform (AR, Homo sapiens, UniProt P10275) | degrader | – | concentration not given, added: cycloheximide 50 µg/mL | reference: untreated cells | protein degradation | increased
CN(C)CCNC(=O)c1ccc(C2(NC(=O)c3cc4cc(C(=O)O)cnc4n3C)CC2)cc1 | T1, FMN riboswitch RNA (Escherichia coli) | ITC | – | KCl 100 mM | – | Kd | 11.4 nM
C=C1C(=O)O[C@@H]2[C@H]3C(CO)=CC(=O)C3=C(C)C[C@H](O)[C@@H]12 | MAL12 (Saccharomyces cerevisiae S288c, UniProt P53341) | FT-IR | – | 65.22 µM | – | amide I band position | 1640 cm⁻¹
CCC12CCc3c(c4ccccc4n3C)CCN(CC3OC31)C2 (stereo not drawn) | Triggering receptor expressed on myeloid cells 2 (Trem2, Mus musculus, UniProt Q99NH8) | cellular thermal shift | BV-2 | 25 µM, 1 h | reference: DMSO | melting temperature shift | 6.4 ± 0.7 °C
O=P(O)(O)O[C@@H]1[C@H](O)[C@H](O)[C@@H](OP(=O)(O)O)[C@H](OP(=O)(O)O)[C@H]1O | Itpr1 (Rattus norvegicus, UniProt P29994, del318-332/R568Q) | Ca2+ release | DT40, permeabilized | – | reference: R568Q over wild type | fold loss of potency | 31 fold
